Results of several laboratories.
Parts stem from different laboratories: compare values within a part only.
UniProt Q9Y6R4, sequence (whole entry, looked up): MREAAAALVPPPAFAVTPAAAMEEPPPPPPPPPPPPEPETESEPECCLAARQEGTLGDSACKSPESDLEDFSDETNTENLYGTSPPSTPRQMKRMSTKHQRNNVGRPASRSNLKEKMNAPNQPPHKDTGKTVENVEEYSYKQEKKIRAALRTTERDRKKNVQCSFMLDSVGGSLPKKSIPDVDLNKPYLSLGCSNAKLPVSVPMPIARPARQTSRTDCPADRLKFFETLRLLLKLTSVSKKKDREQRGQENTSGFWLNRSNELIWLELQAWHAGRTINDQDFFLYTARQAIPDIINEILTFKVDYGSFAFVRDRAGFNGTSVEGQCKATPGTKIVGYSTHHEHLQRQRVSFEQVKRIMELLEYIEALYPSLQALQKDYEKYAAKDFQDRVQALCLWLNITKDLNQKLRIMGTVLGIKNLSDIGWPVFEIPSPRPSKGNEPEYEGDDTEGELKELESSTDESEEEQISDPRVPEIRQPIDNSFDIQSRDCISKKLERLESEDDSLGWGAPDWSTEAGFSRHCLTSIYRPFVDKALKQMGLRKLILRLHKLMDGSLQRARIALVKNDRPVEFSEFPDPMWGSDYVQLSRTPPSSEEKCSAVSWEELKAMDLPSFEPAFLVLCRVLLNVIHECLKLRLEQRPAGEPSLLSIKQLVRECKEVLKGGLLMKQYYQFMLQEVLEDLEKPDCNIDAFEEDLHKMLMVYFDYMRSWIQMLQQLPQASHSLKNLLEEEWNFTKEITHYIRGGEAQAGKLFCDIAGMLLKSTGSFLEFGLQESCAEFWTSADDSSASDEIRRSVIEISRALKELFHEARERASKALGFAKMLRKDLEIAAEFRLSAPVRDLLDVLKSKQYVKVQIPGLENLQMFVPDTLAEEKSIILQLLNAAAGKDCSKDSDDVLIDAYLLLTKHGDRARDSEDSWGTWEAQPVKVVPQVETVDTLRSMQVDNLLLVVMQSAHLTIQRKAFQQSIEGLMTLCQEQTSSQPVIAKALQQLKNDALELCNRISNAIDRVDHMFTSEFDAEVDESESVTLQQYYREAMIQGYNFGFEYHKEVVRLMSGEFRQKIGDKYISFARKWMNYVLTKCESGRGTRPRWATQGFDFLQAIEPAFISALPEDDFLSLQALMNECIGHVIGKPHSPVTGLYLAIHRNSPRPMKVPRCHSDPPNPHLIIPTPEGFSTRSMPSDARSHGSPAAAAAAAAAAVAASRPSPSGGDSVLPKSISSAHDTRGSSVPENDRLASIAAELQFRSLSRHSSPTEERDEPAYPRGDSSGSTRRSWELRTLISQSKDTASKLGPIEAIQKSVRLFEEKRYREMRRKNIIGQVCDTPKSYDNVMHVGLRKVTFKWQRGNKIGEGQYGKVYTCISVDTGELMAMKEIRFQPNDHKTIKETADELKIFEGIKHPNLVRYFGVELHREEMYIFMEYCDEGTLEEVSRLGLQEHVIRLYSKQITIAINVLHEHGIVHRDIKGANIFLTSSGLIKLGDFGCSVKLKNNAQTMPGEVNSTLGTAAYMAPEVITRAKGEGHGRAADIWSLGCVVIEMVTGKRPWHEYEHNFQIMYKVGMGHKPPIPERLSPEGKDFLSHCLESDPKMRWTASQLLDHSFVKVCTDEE
UniProt Q86YV6, sequence (whole entry, looked up): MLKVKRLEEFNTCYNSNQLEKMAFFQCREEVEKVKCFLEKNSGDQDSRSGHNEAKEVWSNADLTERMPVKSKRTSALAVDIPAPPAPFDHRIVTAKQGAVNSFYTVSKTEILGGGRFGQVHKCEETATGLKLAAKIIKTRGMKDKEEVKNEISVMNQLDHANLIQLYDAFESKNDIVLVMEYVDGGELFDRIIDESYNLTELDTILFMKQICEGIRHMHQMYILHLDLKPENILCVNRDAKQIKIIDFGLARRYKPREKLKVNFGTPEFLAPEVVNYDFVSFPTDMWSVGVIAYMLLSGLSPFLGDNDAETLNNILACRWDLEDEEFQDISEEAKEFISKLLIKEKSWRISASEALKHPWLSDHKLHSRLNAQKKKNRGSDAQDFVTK
UniProt P48730, sequence (whole entry, looked up): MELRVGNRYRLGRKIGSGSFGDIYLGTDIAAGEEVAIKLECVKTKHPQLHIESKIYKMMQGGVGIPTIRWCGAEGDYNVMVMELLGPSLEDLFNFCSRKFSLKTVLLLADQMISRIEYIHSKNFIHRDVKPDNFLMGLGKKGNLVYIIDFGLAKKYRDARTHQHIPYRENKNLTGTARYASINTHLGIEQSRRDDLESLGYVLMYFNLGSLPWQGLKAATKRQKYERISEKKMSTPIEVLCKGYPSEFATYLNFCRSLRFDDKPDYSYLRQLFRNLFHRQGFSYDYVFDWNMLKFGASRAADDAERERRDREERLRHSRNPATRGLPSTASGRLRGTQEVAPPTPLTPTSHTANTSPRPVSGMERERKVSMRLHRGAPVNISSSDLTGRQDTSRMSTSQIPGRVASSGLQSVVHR
UniProt Q09013, sequence (whole entry, looked up): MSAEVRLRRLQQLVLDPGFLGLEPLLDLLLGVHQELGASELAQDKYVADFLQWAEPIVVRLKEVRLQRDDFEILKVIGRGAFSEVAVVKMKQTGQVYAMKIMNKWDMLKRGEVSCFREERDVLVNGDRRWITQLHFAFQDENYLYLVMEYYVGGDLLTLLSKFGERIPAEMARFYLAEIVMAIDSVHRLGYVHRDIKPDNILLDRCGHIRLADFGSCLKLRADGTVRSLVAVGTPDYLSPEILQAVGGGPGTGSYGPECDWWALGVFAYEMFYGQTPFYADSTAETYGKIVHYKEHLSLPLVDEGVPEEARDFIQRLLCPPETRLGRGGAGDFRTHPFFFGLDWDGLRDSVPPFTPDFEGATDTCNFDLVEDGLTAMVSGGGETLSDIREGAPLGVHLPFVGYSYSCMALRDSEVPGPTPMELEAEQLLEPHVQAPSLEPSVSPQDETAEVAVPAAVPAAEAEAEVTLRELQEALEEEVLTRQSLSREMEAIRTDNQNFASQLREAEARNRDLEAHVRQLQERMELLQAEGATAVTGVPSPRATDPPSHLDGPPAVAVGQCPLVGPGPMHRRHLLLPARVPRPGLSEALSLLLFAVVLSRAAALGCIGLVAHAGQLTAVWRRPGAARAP
UniProt O75676, sequence (whole entry, looked up): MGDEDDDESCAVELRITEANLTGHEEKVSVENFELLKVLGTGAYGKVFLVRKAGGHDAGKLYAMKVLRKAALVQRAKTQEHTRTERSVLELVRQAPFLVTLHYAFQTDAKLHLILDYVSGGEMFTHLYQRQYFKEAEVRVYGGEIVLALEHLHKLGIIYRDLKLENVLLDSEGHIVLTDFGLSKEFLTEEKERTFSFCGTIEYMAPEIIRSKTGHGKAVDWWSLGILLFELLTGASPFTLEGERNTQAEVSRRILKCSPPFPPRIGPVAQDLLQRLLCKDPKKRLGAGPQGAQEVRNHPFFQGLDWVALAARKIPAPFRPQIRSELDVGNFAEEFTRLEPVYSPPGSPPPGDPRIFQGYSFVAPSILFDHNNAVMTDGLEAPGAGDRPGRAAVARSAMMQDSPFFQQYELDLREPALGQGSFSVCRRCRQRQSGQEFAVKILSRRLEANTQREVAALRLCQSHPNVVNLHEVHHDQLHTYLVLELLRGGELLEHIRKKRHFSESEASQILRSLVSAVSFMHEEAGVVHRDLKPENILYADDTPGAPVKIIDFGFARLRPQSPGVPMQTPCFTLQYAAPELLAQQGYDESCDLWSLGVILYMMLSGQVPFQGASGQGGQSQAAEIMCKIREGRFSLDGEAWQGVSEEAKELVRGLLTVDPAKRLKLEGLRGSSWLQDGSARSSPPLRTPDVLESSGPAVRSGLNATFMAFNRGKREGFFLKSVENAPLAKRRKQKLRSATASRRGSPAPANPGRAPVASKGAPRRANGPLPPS
UniProt P45985, sequence (whole entry, looked up): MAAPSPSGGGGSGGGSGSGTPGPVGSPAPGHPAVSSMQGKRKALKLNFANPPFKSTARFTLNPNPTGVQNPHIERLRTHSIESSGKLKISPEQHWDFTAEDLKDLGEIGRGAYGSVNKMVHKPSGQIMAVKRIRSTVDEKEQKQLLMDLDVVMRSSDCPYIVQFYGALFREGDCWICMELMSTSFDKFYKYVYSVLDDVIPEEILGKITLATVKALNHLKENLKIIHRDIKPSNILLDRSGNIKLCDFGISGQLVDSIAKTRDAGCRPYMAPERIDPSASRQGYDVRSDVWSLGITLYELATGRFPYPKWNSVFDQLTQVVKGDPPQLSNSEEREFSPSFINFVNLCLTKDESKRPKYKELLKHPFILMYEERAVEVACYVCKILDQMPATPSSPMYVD
UniProt O00238, sequence (whole entry, looked up): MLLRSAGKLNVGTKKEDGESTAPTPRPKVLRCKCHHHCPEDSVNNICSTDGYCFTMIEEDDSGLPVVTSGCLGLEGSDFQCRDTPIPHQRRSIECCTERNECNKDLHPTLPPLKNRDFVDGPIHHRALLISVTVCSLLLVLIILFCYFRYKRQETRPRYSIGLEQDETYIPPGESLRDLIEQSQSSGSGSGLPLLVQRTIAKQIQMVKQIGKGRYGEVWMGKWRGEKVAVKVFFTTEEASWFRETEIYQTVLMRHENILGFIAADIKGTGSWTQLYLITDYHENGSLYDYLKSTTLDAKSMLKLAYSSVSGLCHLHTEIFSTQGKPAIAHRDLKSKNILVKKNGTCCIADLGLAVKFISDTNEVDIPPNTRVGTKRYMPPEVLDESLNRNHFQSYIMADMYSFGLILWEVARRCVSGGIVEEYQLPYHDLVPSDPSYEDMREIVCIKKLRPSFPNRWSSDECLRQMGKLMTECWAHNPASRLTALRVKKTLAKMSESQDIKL
UniProt Q8N752, sequence (whole entry, looked up): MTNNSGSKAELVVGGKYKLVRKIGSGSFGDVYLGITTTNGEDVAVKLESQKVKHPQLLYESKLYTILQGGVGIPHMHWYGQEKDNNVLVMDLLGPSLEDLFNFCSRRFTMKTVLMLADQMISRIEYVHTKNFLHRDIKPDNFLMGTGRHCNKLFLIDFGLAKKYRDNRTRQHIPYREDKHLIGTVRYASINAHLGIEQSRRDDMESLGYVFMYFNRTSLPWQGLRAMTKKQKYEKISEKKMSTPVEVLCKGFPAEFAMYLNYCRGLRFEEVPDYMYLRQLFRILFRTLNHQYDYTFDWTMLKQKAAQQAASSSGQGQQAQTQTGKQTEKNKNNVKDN

Block 1
Host: mouse
Medium: microsomes or S9
Tested at: 2 µM
Time: 0.5 h
Compound	remaining compound [%]
Cc1csc2c(N3CCC(S(=O)(=O)NC(C)C)C3)ncnc12 (stereo not drawn)	0.404
Cc1nnc(C)n1/N=C/c1ccc(OCC(N)=O)cc1	49.5
O=C1CC(C2CCCCC2)c2cnn(Cc3cccs3)c2N1 (stereo not drawn)	1.36
CCNc1nc(NNC(=O)CNc2ccccc2)nc(NC(C)C)n1	18.3

Block 2
Compound: Cc1cc(NC(=O)c2cccc(S(F)(F)(F)(F)F)c2)cc(-n2ccn3nc(-c4cccnc4)cc23)c1
Tested at: 1 µM
target	assay	remaining binding [%]
MAP3K4 (Homo sapiens, UniProt Q9Y6R4)	cell-free assay, competition with immobilised ligand	53.6
Ribosomal protein S6 kinase alpha-6, C-terminal kinase domain (RPS6KA6, Homo sapiens, UniProt Q9UK32)	cell-free assay, competition with immobilised ligand	100
MYLK4 (Homo sapiens, UniProt Q86YV6)	cell-free assay, competition with immobilised ligand	91.4
DMPK (Homo sapiens, UniProt Q09013)	cell-free assay, competition with immobilised ligand	100
EGFR (Homo sapiens, UniProt P00533, del747-750/T751S)	cell-free assay, competition with immobilised ligand	95.1
BMPR1B (Homo sapiens, UniProt O00238)	cell-free assay, competition with immobilised ligand	100
AAK1 (Homo sapiens, UniProt Q2M2I8)	binding	100
MET (Homo sapiens, UniProt P08581, Y1235D)	cell-free assay, competition with immobilised ligand	100
EGFR (Homo sapiens, UniProt P00533, del746-750)	cell-free assay, competition with immobilised ligand	100
CSNK1A1L (Homo sapiens, UniProt Q8N752)	cell-free assay, competition with immobilised ligand	100
WEE1 (Homo sapiens, UniProt P30291)	cell-free assay, competition with immobilised ligand	100
MAP2K4 (Homo sapiens, UniProt P45985)	cell-free assay, competition with immobilised ligand	76
Ribosomal protein S6 kinase alpha-2, N-terminal kinase domain (RPS6KA2, Homo sapiens, UniProt Q15349)	cell-free assay, competition with immobilised ligand	84
CSNK1D (Homo sapiens, UniProt P48730)	cell-free assay, competition with immobilised ligand	100
Non-receptor tyrosine-protein kinase TYK2, JH1 (TYK2, Homo sapiens, UniProt P29597)	cell-free assay, competition with immobilised ligand	51
MET (Homo sapiens, UniProt P08581, M1250T)	cell-free assay, competition with immobilised ligand	83.2
Ribosomal protein S6 kinase alpha-4, N-terminal kinase domain (RPS6KA4, Homo sapiens, UniProt O75676)	cell-free assay, competition with immobilised ligand	100
CDK11A (Homo sapiens, UniProt Q9UQ88)	cell-free assay, competition with immobilised ligand	95.4

Block 3
Target: panel of 300 human kinases
Tested at: 0.5 µM
Reading: higher = more selective
SMILES	Gini score
c1ccc(-c2cnc(Nc3ccc(OCCN4CCCC4)cc3)s2)cc1	0.65
Nc1nccc(-c2c(-c3ccc(F)cc3)ncn2C2CCNCC2)n1	0.77
O=C(Nc1cccc(Nc2nccc(Nc3cccc(C(F)(F)F)c3)n2)c1)C1CC1	0.66
COc1ccc(S(=O)(=O)N(CCO)c2ccccc2CN(C)CC=Cc2ccc(Cl)cc2)cc1	0.69
CN(C)C[C@H]1CCn2c(c(C3=C(c4cn(C)c5ccccc45)C(=O)NC3=O)c3ccccc32)C1	0.76
COc1cc(Nc2c(C#N)cnc3cc(OCCCN4CCN(C)CC4)c(OC)cc23)c(Cl)cc1Cl	0.61

Block 4
Method: PRP chromatography estimate
Medium: 1,9-decadiene/PBS
pH: 7.4
Structure (SMILES)	logD
CCOC(=O)[C@@H]1CSCC(=O)N[C@@H](CC)C(=O)N(C)[C@@H](C)C(=O)N[C@H](CC(C)C)C(=O)N2CCC[C@@H]2C(=O)N(CC(C)C)CC(=O)N[C@@H](CC(C)C)C(=O)N(C)[C@@H](C)C(=O)N[C@@H](CC(C)C)C(=O)N1C	0.838
CC(C)C[C@@H]1NC(=O)[C@H](Cc2cscn2)NC(=O)[C@@H](CC(C)C)NC(=O)[C@@H](CCC(=O)N2CCCC2)NC(=O)[C@H](CC(C)C)NC(=O)[C@@H](CC(C)C)NC(=O)[C@H](CC(C)C)NC1=O	0.456
CC(C)C[C@@H]1NC(=O)[C@H](CC(C)C)NC(=O)[C@@H](C(C)C)NC(=O)[C@@H](C)NC(=O)[C@H](C)NC(=O)[C@@H](CC(C)C)NC(=O)[C@H](C)NC1=O	-2.47
CC(C)C[C@@H]1NC(=O)[C@H](C)NC(=O)[C@H](Cc2cscn2)NC(=O)[C@H](CC(C)C)NC(=O)[C@H](C(C)C)NC(=O)[C@H](CC(C)C)NC(=O)[C@@H](CC(C)C)NC1=O	-0.587
CC(C)C[C@@H]1NC(=O)[C@H](CC(C)C)NC(=O)[C@@H](CC(C)C)NC(=O)[C@H](CC(C)C)NC(=O)[C@@H](Cc2cscn2)NC(=O)[C@@H](CC(C)C)NC(=O)[C@H](C)NC1=O	0.285

Block 5
Cell line: A-375
Tested at: 100 µM
Time: 18 h
Compound	viability [%]
CN(Cc1cc(Br)cc(Br)c1N)C1CCCCC1	11.1
Cc1ccccc1C(=O)Nc1ccc(C(=O)N2CCCC(N(C)C)c3ccccc32)cc1 (stereo not drawn)	85.6
O=c1c(-c2ccc(O)cc2)coc2c([C@@H]3O[C@H](CO)[C@@H](O)[C@H](O)[C@H]3O)c(O)ccc12	97.1
